Results from different studies.
Every numbered part comes from another study and shows a few of its results, in no order.
Sequence of UniProt O43293 (whole entry, looked up): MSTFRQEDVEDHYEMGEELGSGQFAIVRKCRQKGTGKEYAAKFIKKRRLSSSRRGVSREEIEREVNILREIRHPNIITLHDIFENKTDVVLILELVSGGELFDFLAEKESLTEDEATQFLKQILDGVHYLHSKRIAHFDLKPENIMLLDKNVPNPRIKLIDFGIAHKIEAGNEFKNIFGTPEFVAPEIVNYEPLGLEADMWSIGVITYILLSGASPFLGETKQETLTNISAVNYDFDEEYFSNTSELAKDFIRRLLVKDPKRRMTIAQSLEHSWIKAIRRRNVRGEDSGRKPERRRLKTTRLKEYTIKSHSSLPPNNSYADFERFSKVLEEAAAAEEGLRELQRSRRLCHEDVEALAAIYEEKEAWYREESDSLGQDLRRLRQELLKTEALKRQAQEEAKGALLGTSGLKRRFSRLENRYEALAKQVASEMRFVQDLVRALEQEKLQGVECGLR
Sequence of UniProt Q00537 (whole entry, looked up): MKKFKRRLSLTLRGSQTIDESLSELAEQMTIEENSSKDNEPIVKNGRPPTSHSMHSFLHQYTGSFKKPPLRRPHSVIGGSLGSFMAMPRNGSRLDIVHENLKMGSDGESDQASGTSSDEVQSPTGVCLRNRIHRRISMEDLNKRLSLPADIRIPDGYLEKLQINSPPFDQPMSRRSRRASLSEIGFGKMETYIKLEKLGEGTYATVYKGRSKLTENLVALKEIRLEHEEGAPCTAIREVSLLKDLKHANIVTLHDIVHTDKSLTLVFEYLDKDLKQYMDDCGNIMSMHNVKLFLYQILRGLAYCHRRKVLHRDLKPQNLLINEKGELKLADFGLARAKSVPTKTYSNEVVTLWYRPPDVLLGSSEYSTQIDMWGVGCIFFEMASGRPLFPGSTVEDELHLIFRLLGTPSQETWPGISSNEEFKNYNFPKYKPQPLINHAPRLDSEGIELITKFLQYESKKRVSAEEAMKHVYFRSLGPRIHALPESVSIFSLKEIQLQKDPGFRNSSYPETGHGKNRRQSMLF
Sequence of UniProt Q6ZN16 (whole entry, looked up): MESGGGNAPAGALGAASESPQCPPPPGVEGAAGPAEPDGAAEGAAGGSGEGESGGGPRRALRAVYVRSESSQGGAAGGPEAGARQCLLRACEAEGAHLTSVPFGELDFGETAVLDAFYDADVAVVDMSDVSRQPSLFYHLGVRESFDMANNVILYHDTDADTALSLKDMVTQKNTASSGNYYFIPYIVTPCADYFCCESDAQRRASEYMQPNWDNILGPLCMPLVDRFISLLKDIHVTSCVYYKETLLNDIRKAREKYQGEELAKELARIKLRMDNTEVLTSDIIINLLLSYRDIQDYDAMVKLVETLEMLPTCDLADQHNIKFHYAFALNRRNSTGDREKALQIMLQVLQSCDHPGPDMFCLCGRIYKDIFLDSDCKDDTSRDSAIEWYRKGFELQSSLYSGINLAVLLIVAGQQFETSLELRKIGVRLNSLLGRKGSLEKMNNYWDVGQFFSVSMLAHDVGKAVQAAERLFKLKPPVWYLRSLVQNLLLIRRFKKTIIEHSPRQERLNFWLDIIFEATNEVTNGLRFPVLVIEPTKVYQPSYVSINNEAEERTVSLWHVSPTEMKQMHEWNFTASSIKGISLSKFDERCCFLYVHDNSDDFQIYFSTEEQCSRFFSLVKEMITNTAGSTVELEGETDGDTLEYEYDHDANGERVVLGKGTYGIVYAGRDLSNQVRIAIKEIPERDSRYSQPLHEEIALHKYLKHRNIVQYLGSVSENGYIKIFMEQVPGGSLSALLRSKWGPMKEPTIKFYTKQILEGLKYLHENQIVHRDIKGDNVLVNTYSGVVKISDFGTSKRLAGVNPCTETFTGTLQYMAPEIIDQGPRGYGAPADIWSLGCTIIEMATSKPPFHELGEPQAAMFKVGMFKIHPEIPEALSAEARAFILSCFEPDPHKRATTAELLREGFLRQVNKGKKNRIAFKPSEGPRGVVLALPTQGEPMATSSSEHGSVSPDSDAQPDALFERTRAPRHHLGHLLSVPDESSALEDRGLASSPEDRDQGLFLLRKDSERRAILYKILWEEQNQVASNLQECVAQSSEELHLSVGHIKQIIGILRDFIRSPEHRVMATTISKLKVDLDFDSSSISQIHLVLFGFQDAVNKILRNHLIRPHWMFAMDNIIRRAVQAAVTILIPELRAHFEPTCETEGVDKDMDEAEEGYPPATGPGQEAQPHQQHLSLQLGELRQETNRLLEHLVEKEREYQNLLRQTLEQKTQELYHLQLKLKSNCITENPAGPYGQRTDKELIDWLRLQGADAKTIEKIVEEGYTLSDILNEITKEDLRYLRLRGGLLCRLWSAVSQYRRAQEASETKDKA
Sequence of UniProt P04049 (whole entry, looked up): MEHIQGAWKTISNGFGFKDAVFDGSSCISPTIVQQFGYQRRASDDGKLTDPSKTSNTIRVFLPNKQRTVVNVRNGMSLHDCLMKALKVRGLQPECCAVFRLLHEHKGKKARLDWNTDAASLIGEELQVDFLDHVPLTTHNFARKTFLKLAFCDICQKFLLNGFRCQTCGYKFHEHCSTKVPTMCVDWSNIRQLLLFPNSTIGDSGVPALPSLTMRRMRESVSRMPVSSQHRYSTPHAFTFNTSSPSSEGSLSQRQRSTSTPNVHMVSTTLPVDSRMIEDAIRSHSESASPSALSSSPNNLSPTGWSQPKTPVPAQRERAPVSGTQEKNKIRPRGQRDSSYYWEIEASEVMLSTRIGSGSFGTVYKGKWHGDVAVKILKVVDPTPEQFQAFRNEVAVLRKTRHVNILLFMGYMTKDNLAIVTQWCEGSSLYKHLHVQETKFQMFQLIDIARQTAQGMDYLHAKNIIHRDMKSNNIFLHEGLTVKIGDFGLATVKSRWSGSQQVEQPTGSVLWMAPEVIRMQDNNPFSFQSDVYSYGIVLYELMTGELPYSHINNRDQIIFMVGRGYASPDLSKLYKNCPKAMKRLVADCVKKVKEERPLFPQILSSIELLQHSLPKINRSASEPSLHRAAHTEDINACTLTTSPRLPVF
Sequence of UniProt Q8N4C8 (whole entry, looked up): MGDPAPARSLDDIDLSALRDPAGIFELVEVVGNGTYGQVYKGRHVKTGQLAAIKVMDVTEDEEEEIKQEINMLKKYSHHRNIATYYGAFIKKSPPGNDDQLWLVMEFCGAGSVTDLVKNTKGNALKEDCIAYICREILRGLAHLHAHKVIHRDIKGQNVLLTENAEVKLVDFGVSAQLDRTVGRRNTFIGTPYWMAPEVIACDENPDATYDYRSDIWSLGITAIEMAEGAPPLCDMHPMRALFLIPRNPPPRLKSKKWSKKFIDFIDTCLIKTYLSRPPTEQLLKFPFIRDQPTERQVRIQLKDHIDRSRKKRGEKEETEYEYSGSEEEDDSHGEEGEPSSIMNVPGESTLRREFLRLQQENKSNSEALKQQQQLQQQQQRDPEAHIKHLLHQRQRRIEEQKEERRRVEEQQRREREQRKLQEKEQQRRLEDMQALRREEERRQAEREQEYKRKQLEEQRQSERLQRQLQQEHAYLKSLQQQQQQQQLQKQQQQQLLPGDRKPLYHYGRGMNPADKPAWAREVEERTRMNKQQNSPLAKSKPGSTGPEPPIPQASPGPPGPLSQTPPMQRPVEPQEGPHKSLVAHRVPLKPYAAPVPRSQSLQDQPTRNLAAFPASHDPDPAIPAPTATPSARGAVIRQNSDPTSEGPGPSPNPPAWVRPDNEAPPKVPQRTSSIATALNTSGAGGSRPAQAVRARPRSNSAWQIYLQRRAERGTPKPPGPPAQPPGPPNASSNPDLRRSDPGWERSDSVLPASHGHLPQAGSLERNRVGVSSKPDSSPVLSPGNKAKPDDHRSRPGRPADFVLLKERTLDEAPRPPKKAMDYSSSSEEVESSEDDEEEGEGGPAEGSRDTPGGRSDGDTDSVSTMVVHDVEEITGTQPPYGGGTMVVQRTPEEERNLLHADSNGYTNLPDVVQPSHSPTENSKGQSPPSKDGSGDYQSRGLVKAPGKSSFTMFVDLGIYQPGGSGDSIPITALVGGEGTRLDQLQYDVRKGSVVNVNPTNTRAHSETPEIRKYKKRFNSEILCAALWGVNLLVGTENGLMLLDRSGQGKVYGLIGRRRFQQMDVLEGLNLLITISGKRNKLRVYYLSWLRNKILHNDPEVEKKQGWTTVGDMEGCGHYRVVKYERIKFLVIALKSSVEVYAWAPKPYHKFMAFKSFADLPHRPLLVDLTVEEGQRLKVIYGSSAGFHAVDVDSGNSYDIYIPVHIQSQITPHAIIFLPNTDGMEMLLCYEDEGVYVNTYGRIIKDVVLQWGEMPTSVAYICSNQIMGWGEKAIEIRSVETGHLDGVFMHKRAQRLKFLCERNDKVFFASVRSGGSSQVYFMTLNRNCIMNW
Sequence of UniProt Q96PN8 (whole entry, looked up): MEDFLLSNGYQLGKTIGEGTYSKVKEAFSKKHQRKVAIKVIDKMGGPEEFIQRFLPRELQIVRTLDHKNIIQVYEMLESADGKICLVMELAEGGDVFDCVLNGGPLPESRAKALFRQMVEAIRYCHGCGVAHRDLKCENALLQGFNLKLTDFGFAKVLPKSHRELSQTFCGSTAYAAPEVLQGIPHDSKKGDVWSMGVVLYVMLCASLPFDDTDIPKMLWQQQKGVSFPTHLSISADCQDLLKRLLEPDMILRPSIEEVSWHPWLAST

Study 1
Target: Calcium/calmodulin-dependent protein kinase type II subunit alpha (CAMK2A, Homo sapiens, UniProt Q9UQM7)
Sequence of UniProt Q9UQM7 (whole entry, looked up): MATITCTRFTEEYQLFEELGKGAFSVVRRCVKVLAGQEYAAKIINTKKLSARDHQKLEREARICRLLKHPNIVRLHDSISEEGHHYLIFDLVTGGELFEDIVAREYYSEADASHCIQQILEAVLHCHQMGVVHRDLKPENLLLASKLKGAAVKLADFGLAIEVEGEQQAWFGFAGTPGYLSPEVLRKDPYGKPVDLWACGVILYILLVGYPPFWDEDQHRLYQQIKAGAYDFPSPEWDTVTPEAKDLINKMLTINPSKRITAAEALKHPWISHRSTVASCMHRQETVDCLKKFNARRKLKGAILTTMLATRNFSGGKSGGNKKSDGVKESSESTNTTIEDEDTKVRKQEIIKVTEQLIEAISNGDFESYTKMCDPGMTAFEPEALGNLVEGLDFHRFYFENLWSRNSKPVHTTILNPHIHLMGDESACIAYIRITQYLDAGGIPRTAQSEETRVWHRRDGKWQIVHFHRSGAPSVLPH
Effect on: enzyme activity
Mode: inhibitor
Concentration: 10 µM
| SMILES | inhibition [%] |
| --- | --- |
| Nc1cccc2c1C(=O)N(C1CCC(=O)NC1=O)C2=O (stereo not drawn) | -3 |
| CC1(C)CC[C@]2(C(=O)O)CC[C@]3(C)C(=CC[C@@H]4[C@@]5(C)CC[C@H](O[C@@H]6O[C@H](C(=O)O)[C@@H](O)[C@H](O)[C@H]6O)C(C)(C)[C@@H]5CC[C@]43C)[C@@H]2C1 | 5 |
| CCCCCCCCCCCCCC(=O)O[C@H]1CC[C@@]2(C)C(=CC[C@H]3[C@@H]4CC[C@H]([C@H](C)CCCC(C)C)[C@@]4(C)CC[C@@H]32)C1 | 5 |
| O=C1OC(c2ccc(O)cc2)(c2ccc(O)cc2)c2ccccc21 | -5 |
| COc1ccc(CC(=O)c2ccc(O)cc2O)cc1 | -27 |
| O=C(NCCCN1CCOCC1)c1ccc(Cl)cc1 | -6 |
| CNC(=O)c1cnn(-c2nc(N)c3ncn([C@@H]4O[C@H](CO)[C@@H](O)[C@H]4O)c3n2)c1 | -3 |
| COc1cc2c(cc1O)[C@@H](Cc1ccc(O)c(Oc3ccc(C[C@@H]4c5cc(OC)c(OC)cc5CCN4C)cc3)c1)N(C)CC2 | -4 |
| CC1(C)CCC2(CO)C(=C3C=CC4C5(C)CCC(OC6OC(COC7OC(CO)C(O)C(O)C7O)C(OC7OC(CO)C(O)C(O)C7O)C(O)C6O)CC5C(C)(CO)CC4(C)C3(C)CC2O)C1 (stereo not drawn) | -26 |

Study 2
SMILES: O=C(Nc1cnn(-c2csc(C(=O)NC3COC3)c2)c1)Nc1ccccc1Cl
Effect on: enzyme activity
Concentration: 5 µM
| target | mode | reference | remaining activity |
| --- | --- | --- | --- |
| Cyclin-dependent kinase 17, with cyclin Y (CDK17, Homo sapiens, UniProt Q00537) |  | untreated control | 106% |
| MINK1 (Homo sapiens, UniProt Q8N4C8) |  | untreated control | 78.6% |
| CSNK1E (Homo sapiens, UniProt P49674) |  | untreated control | 89% |
| TESK1 (Homo sapiens, UniProt Q15569) |  | untreated control | 101% |
| TTBK1 (Homo sapiens, UniProt Q5TCY1) | inhibitor |  | 97.2% |
| BRSK1 (Homo sapiens, UniProt Q8TDC3) |  | untreated control | 84.5% |
| TSSK3 (Homo sapiens, UniProt Q96PN8) |  | untreated control | 97.6% |
| DCLK1 (Homo sapiens, UniProt O15075) |  | untreated control | 95% |
| DYRK4 (Homo sapiens, UniProt Q9NR20) |  | untreated control | 91.6% |
| PAK3 (Homo sapiens, UniProt O75914) |  | untreated control | 96.8% |
| LCK (Homo sapiens, UniProt P06239) |  | untreated control | 91.3% |
| Myosin-IIIb (MYO3B, Homo sapiens, UniProt Q8WXR4) |  | untreated control | 126% |

Study 3
Host: mouse
Matrix: microsomes or S9
Concentration: 2 µM
Time: 0.5 h
| SMILES | remaining compound [%] |
| --- | --- |
| O=S(=O)(NC1CCCCC1)c1ccc(-c2nnc(C3CCC3)o2)s1 | 27.6 |
| CN1CCC(Nc2ccn(-c3ncccc3C(F)(F)F)n2)CC1 | 74.2 |
| Cc1nn(C(C)C(=O)N(C)Cc2cnn(C)c2)cc1Br (stereo not drawn) | 61.3 |
| O=C1CCc2cc3oc(-c4ccc(F)cc4)nc3cc21 | 16.7 |
| COc1nn(C)c(=O)n1-c1ccccc1NC(=O)c1ccc(Cl)cc1Cl | 72.9 |
| CCS(=O)(=O)c1ccc(Cc2ccc(S(=O)(=O)CC)cc2)cc1 | > 99 |
| Cc1c(C(=O)O)nnn1-c1cccc2cnccc12 | > 100 |
| CN1Cc2cc(NCc3c(Cl)cnn3C)ccc2NC1=O | 65.4 |
| Cc1c(NC(=O)c2ccc(Cl)cc2)c(=O)n(-c2ccccc2)n1C | 84.7 |
| COc1ccccc1N1C(=O)c2c(NC(C)=O)c3cc(F)ccc3n2CC1(C)C(=O)NC1CCCC1 (stereo not drawn) | 8.84 |
| COc1cccc(-c2nc3cc(Cl)ccc3c3ccnn23)c1Cl | 0.0966 |
| c1ccc2c(c1)CC(N1CCCCC1)c1ccccc1N2 (stereo not drawn) | 50 |
| COc1ccc2c(CSc3nc4ccccc4o3)cc(=O)oc2c1 | 0 |
| CC(=O)/N=C1\N(c2ccc(Cl)cc2Cl)C(=O)N(S(=O)(=O)c2ccc(Cl)cc2)C1(C)C(C)C (stereo not drawn) | 6.44 |
| CCCS(=O)(=O)c1nc2ccc(NS(=O)(=O)Cc3ccccc3)cc2s1 | 28.8 |

Study 4
Compound: Cc1nc(N2CC[C@@H](O)C2)ncc1-c1cc(C(F)(F)F)cc2[nH]ncc12
Technique: competition with immobilised ligand
Concentration: 1 µM
| target | effect on | remaining binding [%] |
| --- | --- | --- |
| STK10 (Homo sapiens, UniProt O94804) | binding | 100 |
| EGFR (Homo sapiens, UniProt P00533, del746-750) | cell-free assay | 90 |
| MAP3K7 (Homo sapiens, UniProt O43318) | binding | 89 |
| SRC (Homo sapiens, UniProt P12931) | cell-free assay | 95 |
| CASK (Homo sapiens, UniProt O14936) | binding | 95 |
| EGFR (Homo sapiens, UniProt P00533, L858R) | cell-free assay | 77 |
| DYRK1B (Homo sapiens, UniProt Q9Y463) | cell-free assay | 96 |
| ANKK1 (Homo sapiens, UniProt Q8NFD2) | binding | 85 |
| Non-receptor tyrosine-protein kinase TYK2, JH2 (TYK2, Homo sapiens, UniProt P29597) | binding | 70 |
| RAF1 (Homo sapiens, UniProt P04049) | binding | 100 |
| NUAK1 (Homo sapiens, UniProt O60285) | binding | 83 |
| MAP3K15 (Homo sapiens, UniProt Q6ZN16) | binding | 100 |
| Ribosomal protein S6 kinase alpha-6, N-terminal kinase domain (RPS6KA6, Homo sapiens, UniProt Q9UK32) | binding | 51 |
| HASPIN (Homo sapiens, UniProt Q8TF76) | cell-free assay | 66 |
| STK3 (Homo sapiens, UniProt Q13188) | binding | 80 |
| MET (Homo sapiens, UniProt P08581, M1250T) | cell-free assay | 92 |
| HCK (Homo sapiens, UniProt P08631) | cell-free assay | 100 |
| DAPK3 (Homo sapiens, UniProt O43293) | binding | 100 |
| VRK2 (Homo sapiens, UniProt Q86Y07) | binding | 86 |
| GSK3B (Homo sapiens, UniProt P49841) | cell-free assay | 65 |
| CDK13 (Homo sapiens, UniProt Q14004) | binding | 90 |
